Assay results pooled from the literature.
Each line is one published result; not all experiments were run side by side. ± gives the spread as reported.

`C[n+]1ccc(/C=N/NC(=O)c2cccc(C(=O)N/N=C/c3cc[n+](C)c4ccccc34)n2)c2ccccc21` has a ΔTm of 0.7 ± 0.3 °C (hp2 hairpin duplex DNA; FRET melting; 1 µM, added: ds26 10 µM).
For `C=CC(=O)Nc1cccc(Cn2ncc3cnc(Nc4cnn(CCOC)c4)nc32)c1`, “percent of control” read 67% (NEK3 human; binding, KINOMEscan; 100 nM; lower = stronger binding).
`CN1CCCNC(=O)c2cccc(c2)C(=O)NCCCN(C)CCCNc2cccc3c2C(=O)c2cccc(c2C3=O)NCCC1`: “log2 fold change” 0.702 (SAS; RNA-Seq, refers to: ADNP2 mRNA; 1 µM, 6 h; relative to: untreated cells).
`Cc1ccc(/C=N/N=C(\S)Nc2cccc(S(=O)(=O)N(C)C)c2)o1` gave an EC50 of 12.6 µM (Mus musculus; gene silencing, high-content imaging; LDR reporter GFP cells; retest, mean of two runs).
The delta Tm of `C[n+]1cc(NC(=O)c2ccc3ccc4ccc(C(=O)Nc5cc6ccccc6[n+](C)c5)nc4c3n2)cc2ccccc21` is reported as 7.9 °C (MYC promoter parallel G-quadruplex DNA; UV melting; 3 µM, 1 mM potassium, added: DNA 3 µM).
`Cc1ncsc1-c1ccc(C(C)NC(=O)C2CC(O)CN2C(=O)C(NC(=O)CCCCCCCCCCN2CCCC(Nc3ncc(Cl)c(Nc4ccccc4S(=O)(=O)C(C)C)n3)C2)C(C)(C)C)cc1` (stereo not drawn): “log2 fold change” -1.54 (22Rv1; RNA-seq, refers to: NSUN3 mRNA; concentration not given; relative to: DMSO).
`COC1CN([C@H]2CC[C@H]([C@@]3(C)Oc4c(Cl)cc(C(=O)NCc5c(SC)cc(C)[nH]c5=O)c(C)c4O3)CC2)C1` — result for “log2 fold change”: 1.76 (RNA-seq, refers to: mouse JHY homolog; mouse, HT-1376 xenograft, whole blood; dose not given, PRC2 target gene; relative to: vehicle).
`CC[n+]1cccc2cc(/C=N/NC(=O)c3cncc(C(=O)N/N=C/c4ccc5c(ccc[n+]5CC)c4)n3)ccc21` has a ΔTm of 8.8 ± 0.2 °C (MYC parallel G4 DNA; FRET melting; 1 µM, DNA 0.2 µM).
`CNS(=O)(=O)Nc1nccc(Cc2c(C)c3ccc(Oc4ncccc4F)cc3oc2=O)c1F` has an IC50 of 0.00908 µM (HuP-T4; cell viability; 7 days).
The ΔTm of `O=C(N/N=C/c1cc[n+](Cc2ccccc2)c2ccccc12)c1cccc(C(=O)N/N=C/c2cc[n+](Cc3ccccc3)c3ccccc23)c1` is reported as 0.9 ± 0.1 °C (hp2 hairpin duplex DNA; FRET melting; 1 µM).
With `Nc1ncc(-c2cc(-c3cnn(CC(F)(F)F)c3)ncc2F)nc1C(=O)NC1CNCC(F)C1` (stereo not drawn) the remaining binding was 3.2% (RIPK4; KINOMEscan; 1 µM; relative to: control).
`Cc1ccc(C(C)C)c(OCc2ccc(C(=O)N/N=C/c3cccc(O)c3O)cc2)c1` gave an AC50 of 2.51 µM (Mus musculus; gene silencing, high-content imaging; LDR reporter GFP cells; retest run 1).

Some of these lines once more:
For `C=CC(=O)Nc1cccc(Cn2ncc3cnc(Nc4cnn(CCOC)c4)nc32)c1`, “percent of control” read 67% (NEK3 human; binding, KINOMEscan; 100 nM; lower = stronger binding).
